# Experimental data from different studies.
# “And” joins repeats or separate records; there may be more than shown. ± marks the error that the study gave.
# DRD3: D(3) dopamine receptor (DRD3, Homo sapiens, UniProt P35462)
# Sequence of UniProt P35462 (whole entry, looked up): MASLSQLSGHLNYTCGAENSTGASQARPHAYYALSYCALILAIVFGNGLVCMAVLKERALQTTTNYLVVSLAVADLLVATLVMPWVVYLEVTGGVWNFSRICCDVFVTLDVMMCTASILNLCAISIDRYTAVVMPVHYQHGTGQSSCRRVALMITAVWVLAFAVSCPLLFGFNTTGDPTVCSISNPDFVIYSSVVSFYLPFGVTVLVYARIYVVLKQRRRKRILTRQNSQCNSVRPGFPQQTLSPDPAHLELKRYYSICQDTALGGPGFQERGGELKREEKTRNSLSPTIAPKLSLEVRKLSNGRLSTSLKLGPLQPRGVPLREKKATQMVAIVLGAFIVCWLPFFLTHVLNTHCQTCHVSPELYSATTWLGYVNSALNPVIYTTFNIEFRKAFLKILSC
# Accessory gene regulator protein C: Accessory gene regulator protein C (Staphylococcus epidermidis, UniProt Q8VSX2)
# Oprd1: Delta-type opioid receptor (Oprd1, Rattus norvegicus, UniProt P33533)
# Sequence of UniProt P33533 (whole entry, looked up): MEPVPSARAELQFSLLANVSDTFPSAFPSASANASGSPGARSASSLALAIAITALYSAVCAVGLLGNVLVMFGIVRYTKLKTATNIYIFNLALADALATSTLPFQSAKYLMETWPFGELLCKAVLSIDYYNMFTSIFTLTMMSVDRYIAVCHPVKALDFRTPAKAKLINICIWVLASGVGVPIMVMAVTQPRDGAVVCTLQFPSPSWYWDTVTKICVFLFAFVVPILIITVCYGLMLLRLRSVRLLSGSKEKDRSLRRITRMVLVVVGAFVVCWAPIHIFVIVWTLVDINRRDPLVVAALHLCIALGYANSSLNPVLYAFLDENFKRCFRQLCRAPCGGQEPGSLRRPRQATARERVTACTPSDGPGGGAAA
# Sequence of UniProt Q9NSD7 (whole entry, looked up): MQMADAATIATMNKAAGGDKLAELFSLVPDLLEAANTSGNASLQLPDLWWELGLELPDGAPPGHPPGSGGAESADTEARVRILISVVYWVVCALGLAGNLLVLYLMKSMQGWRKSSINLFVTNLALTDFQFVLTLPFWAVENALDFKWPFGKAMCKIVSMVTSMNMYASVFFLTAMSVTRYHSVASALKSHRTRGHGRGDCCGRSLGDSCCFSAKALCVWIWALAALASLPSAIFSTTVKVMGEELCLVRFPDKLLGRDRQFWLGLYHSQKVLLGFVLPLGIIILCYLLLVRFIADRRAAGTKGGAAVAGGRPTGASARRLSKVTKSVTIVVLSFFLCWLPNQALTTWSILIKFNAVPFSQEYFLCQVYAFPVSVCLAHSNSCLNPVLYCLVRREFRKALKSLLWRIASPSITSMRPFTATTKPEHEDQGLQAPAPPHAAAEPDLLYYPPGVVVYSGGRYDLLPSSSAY
# Sequence of UniProt A7T1N0 (whole entry, unmodified, looked up): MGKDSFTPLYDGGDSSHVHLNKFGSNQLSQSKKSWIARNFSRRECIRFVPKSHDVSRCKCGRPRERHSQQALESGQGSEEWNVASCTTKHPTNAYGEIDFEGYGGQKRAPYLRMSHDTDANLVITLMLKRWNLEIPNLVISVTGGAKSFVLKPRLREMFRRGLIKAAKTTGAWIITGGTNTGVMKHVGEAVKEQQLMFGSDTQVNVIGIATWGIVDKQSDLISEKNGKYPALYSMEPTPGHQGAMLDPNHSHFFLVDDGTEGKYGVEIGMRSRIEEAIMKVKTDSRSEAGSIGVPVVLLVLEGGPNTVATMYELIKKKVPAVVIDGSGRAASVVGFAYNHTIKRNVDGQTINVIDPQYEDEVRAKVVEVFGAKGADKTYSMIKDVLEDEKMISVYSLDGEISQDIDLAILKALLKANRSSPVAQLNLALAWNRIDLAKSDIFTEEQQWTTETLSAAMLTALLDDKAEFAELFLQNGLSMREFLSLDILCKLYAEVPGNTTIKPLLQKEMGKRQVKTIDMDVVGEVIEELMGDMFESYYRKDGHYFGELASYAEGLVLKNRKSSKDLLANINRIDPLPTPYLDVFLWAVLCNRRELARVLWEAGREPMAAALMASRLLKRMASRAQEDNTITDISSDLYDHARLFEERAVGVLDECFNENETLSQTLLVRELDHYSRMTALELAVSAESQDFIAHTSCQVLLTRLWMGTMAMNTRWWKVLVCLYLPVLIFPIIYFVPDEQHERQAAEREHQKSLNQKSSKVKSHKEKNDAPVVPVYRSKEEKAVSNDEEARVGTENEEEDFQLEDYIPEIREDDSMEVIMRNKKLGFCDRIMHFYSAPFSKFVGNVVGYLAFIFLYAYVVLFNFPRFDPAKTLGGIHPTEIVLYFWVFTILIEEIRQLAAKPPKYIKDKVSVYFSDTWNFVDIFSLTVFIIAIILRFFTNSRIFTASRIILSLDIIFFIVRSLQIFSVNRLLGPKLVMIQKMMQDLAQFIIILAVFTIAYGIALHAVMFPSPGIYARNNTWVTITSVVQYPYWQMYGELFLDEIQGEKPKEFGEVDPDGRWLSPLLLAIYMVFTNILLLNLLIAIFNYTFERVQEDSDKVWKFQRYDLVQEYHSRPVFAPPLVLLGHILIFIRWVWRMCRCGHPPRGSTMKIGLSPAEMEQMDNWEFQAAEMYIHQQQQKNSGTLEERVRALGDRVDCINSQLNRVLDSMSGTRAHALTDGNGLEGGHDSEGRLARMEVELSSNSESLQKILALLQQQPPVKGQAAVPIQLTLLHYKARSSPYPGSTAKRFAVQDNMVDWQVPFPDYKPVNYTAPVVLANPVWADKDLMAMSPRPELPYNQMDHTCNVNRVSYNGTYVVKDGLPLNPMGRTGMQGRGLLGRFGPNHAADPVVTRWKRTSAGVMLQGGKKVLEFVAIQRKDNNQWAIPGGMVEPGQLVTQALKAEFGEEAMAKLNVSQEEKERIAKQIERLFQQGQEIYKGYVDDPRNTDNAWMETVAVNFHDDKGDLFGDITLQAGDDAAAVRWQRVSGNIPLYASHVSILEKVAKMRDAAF
# Sequence of UniProt P50391 (whole entry, looked up): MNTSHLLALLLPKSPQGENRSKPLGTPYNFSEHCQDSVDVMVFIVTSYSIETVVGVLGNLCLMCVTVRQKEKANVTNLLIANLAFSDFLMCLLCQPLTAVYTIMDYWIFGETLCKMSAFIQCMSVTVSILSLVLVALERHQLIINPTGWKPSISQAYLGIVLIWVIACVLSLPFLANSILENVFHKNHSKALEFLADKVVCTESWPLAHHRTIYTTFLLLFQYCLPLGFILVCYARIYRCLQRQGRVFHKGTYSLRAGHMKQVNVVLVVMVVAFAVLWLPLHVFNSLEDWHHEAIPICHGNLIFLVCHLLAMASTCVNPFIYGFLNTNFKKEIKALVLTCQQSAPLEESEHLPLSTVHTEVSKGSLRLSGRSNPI
Structure (SMILES),target,assay,test system,setting,EC50
OC1(c2ccc(Cl)cc2)CCN(Cc2c[nH]c3ccccc23)CC1,DRD3,"cell growth or viability, thymidine uptake",,,> 10 µM
CC(C)C[C@@H]1NC(=O)[C@H](Cc2ccc(O)cc2)NC(=O)[C@H](CC(N)=O)NC(=O)[C@H](CO)NC(=O)[C@@H](NC(=O)[C@@H](NC(=O)[C@H](CC(N)=O)NC(=O)[C@H](Cc2ccc(O)cc2)NC(=O)[C@@H](N)CCCCN)C(C)C)CSC1=O,Accessory gene regulator protein C,,,,> 2 µM
Cc1cc(O)cc(C)c1C[C@H](N)C(=O)N[C@@H](C(=O)NCC(=O)N[C@@H](Cc1ccc2ccccc2c1)C(=O)N[C@@H](CC(C)C)C(=O)N[C@@H](CO)C(N)=O)[C@H](C)O,Oprd1,"GTPγS binding, agonist, radiometric",,cell membranes,0.0003 µM
CC(N)CCc1ccccc1Cl (racemic),DRD3,"GTPγS binding, agonist, radiometric",,cell membranes,1.1 µM and ~1 µM and 1.11 µM
CC(C)C[C@@H]1NC(=O)[C@H](Cc2ccc(O)cc2)NC(=O)[C@H](CO)NC(=O)[C@H](C)NC(=O)[C@@H](NC(=O)[C@@H]2CCCN2C(=O)[C@H](CC(N)=O)NC(=O)[C@H](Cc2ccc(O)cc2)NC(=O)[C@H](C)NC(=O)[C@H](C)NC(=O)[C@H](C)NC(=O)[C@@H](N)CC(N)=O)CSC1=O,Accessory gene regulator protein C,,,,> 2 µM
CC[C@H](C)[C@H](NC(=O)[C@H](CC(N)=O)NC(=O)[C@H](Cc1ccccc1)NC(=O)[C@H](Cc1ccccc1)NC(=O)[C@@H](NC(=O)[C@H](CC(N)=O)NC(=O)[C@H](Cc1c[nH]cn1)NC(=O)[C@@H](NC(=O)[C@H](CCC(N)=O)NC(=O)[C@H](CCCNC(=N)N)NC(=O)[C@@H](NC(=O)[C@@H](N)CCC(=O)O)[C@@H](C)CC)[C@@H](C)O)[C@@H](C)CC)C(=O)N[C@@H](Cc1ccccc1)C(=O)N[C@@H](CCCCN)C(=O)N[C@@H](CCCNC(=N)N)C(=O)N[C@@H](CCCNC(=N)N)C(=O)O,"histidine kinase ComD (Streptococcus pneumoniae serotype 4, UniProt A0A0H2US84)","reporter gene, agonist","Streptococcus pneumoniae, TIGR4 comX::lacZ","30 min, pH 7.3, 37 °C",> 1 µM
CC[C@H](C)[C@@H]1NC(=O)[C@H](Cc2ccccc2)NC(=O)[C@@](C)(NC(=O)[C@H](CCCNC(=N)N)NC(=O)CNC(=O)[C@H](CO)NC(=O)[C@H](CC(C)C)NC(=O)[C@@H](N)CCCNC(=N)N)CCCC=CCCC[C@@](C)(C(=O)N[C@H](C(=O)N[C@H](C(=O)N[C@@H](Cc2ccccc2)C(=O)N[C@H](C(=O)N[C@@H](CO)C(=O)NCC(=O)NCC(=O)N[C@@H](CO)C(=O)N[C@@H](CCCNC(=N)N)C(=O)N[C@@H](Cc2c[nH]c3ccccc23)C(=O)O)[C@@H](C)O)[C@@H](C)CC)C(C)C)NC(=O)[C@H](CCCNC(=N)N)NC1=O,"RXFP3 (Homo sapiens, UniProt Q9NSD7)","cAMP, agonist",,,0.00575 µM
CC(=O)N[C@H](CCCNC(=N)N)C(=O)N[C@@H](Cc1ccc(O)cc1)C(=O)N[C@@H](CCCNC(=N)NC(=O)NCCCCN)C(=O)N[C@@H](CC(C)C)C(=O)N[C@@H](CCCNC(=N)N)C(=O)N[C@@H](Cc1ccc(O)cc1)C(N)=O,"NPY4R (Homo sapiens, UniProt P50391)","β-arrestin 1 recruitment, agonist",HEK293T,,2.16 ± 0.6 µM
Nc1ncnc2c1ncn2C1OC(COP(=O)(O)OP(=O)(O)OCC2OC(O)C(O)C2O)C(O)C1O (stereo not shown),"TRPM2 (Nematostella vectensis, UniProt A7T1N0, Y264A)","channel activation, activator, inside-out patch clamp",,"Y264A mutant, currents not saturated, added: 125 µM Ca2+ and 2.5 µM PIP2",1870 ± 936 µM
CCCCc1cc(Cc2ccccc2)cc2c1NCCC2NC(=O)C(N)Cc1c(C)cc(O)cc1C (stereo not shown),Oprd1,"GTPγS binding, agonist, radiometric",,cell membranes,0.25 µM

# Some of these lines once more:
Structure (SMILES),target,assay,test system,setting,EC50
Nc1ncnc2c1ncn2C1OC(COP(=O)(O)OP(=O)(O)OCC2OC(O)C(O)C2O)C(O)C1O (stereo not shown),"TRPM2 (Nematostella vectensis, UniProt A7T1N0, Y264A)","channel activation, activator, inside-out patch clamp",,"Y264A mutant, currents not saturated, added: 125 µM Ca2+ and 2.5 µM PIP2",1870 ± 936 µM
